# Measured values collected from several papers.
# Protocols differ between the studies behind these lines.
# Target: 5-hydroxytryptamine receptor 1B (HTR1B, Homo sapiens, UniProt P28222)
Compound,assay,test system,conditions,how to read,endpoint,result
COc1ccccc1N1CCN(CCCCN2CCCc3ccccc3C2=O)CC1,radioligand binding,,"concentration not given, added: [3H]5-CT",,inhibition,86.1%
Cc1cc(Nc2nc(C[C@@]3(C(=O)O)CCN(Cc4cccc(Cl)c4F)[C@H](C)C3)cc(C)c2F)[nH]n1,inhibitor,,10 µM,,inhibition,0.81%
Cc1cc(-c2ccc3ccccc3c2)nnc1NCCN1CCN(C)CC1,antagonist,,10000 nM,baseline: control,activity,12%
CCc1nnc(-c2c(OC)cc(-c3cnc4cc(-c5cnn(C)c5)ccn34)cc2OC)o1,"antagonist radioligand, radioligand binding",,"10 µM, SafetyScreen44 5-HT1B",,inhibition,-23%
C/C(=N\OCCCN1CCCCC1)c1ccc(C(F)(F)F)cc1,"agonist, cAMP",,10 µM,,activation,4.3%
N[C@H](C(=O)N1CCCC1)C1CCN(c2nccc3c(-c4ncc(Cl)cc4Cl)cccc23)CC1,"functional response, agonist",,10 µM,,response,0%
CCN(CC)CCOc1ccc(-c2nnn(Cc3ccc(OC)cc3)c2N)cc1,radioligand binding,Chem-1,"10 µM, added: 10000 nM radioligand",,inhibition,4.58%
O=C1c2ccccc2CCCN1CCCCN1CCN(c2cccc(Cl)c2Cl)CC1,radioligand binding,,"concentration not given, added: [3H]5-CT",,inhibition,96%
C[C@H](NCc1ccc(-c2ccc(C(F)(F)F)cc2)cc1)C(N)=O,"radioligand binding, SafetyScreen panel",,"1 µM, species human, added: 1.0 nM [3H]GR125743",,inhibition,-3%
